# Measured values of several laboratories.
# Lines come from different studies, so protocols differ.
SMILES,cell line,observed,method,time,IC50
CCn1cc(/C=C/c2sc3ccccc3[n+]2CC)c2ccccc21,HTB26,cell growth or viability,MTT,24 h,5.18 µM
CN(C)/C=C/C(=O)c1ccc2[nH]c3ncc(-c4ccc(N5CCN(C)CC5)cc4)cc3c2c1,Ba/F3 NPM-ALK,cell proliferation,[3H]-thymidine incorporation,,0.39 µM
COc1ccc2nc(Cl)c(-c3nc4cc(Cl)ccc4[nH]3)cc2c1,BEL-7404,cell growth or viability,MTT,48 h,26.7 µM
CCCCCCCCCCCCCCn1c(-c2cccnc2)nc(-c2ccc(C)cc2)c1-c1ccc(C)cc1,BT-474,cell growth or viability,SRB,24 h,> 100 µM
Cc1ccc2nc(Cl)c(-c3nc4cc(C)c(C)cc4[nH]3)cc2c1,L02,cell growth or viability,MTT,48 h,> 100 µM
COc1ccc2cc3[n+](cc2c1OCc1cn(Cc2ccc(OC(F)(F)F)cc2)nn1)CCc1cc2c(cc1-3)OCO2,SMMC-7721,cell growth or viability,MTT,,25 µM
Cc1cc(C)c(-n2c3c([n+](-c4c(C)cc(C)cc4C)[c]2[Au-][Cl])-c2cccc4cccc-3c24)c(C)c1,NTERA2,cell growth or viability,MTT,72 h,11 µM
CCCCCCCC(=O)O[C@H]1[C@H](C)O[C@@H](O[C@H]2[C@H](N(C)C)[C@@H](O)[C@H](O[C@H]3[C@@H](CC=O)C[C@@H](C)[C@@H](O[C@H]4CC[C@H](N(C)C)[C@@H](C)O4)/C=C/C=C/C[C@@H](C)OC(=O)C[C@@H](O)[C@@H]3OC)O[C@@H]2C)C[C@@]1(C)O,GES1,cell growth or viability,CCK-8,72 h,12.1 µM
CCCCCCCCCCn1c(-c2cccnc2)nc(-c2ccc(C)cc2)c1-c1ccc(C)cc1,BT-474,cell growth or viability,SRB,24 h,> 100 µM
COc1ccc2cc3[n+](cc2c1OCc1cn(Cc2ccc(C(C)(C)C)cc2)nn1)CCc1cc2c(cc1-3)OCO2,SMMC-7721,cell growth or viability,MTT,,11.9 µM

# Some of these lines once more:
SMILES,cell line,observed,method,time,IC50
Cc1cc(C)c(-n2c3c([n+](-c4c(C)cc(C)cc4C)[c]2[Au-][Cl])-c2cccc4cccc-3c24)c(C)c1,NTERA2,cell growth or viability,MTT,72 h,11 µM
CCCCCCCC(=O)O[C@H]1[C@H](C)O[C@@H](O[C@H]2[C@H](N(C)C)[C@@H](O)[C@H](O[C@H]3[C@@H](CC=O)C[C@@H](C)[C@@H](O[C@H]4CC[C@H](N(C)C)[C@@H](C)O4)/C=C/C=C/C[C@@H](C)OC(=O)C[C@@H](O)[C@@H]3OC)O[C@@H]2C)C[C@@]1(C)O,GES1,cell growth or viability,CCK-8,72 h,12.1 µM
